Measured values pooled from the literature.
A part holds a random share of what one study measured.

Set 1
Target: RNA binding protein fox-1 homolog 2, RRM domain, GST-SBP tag (RBFOX2, Homo sapiens, UniProt O43251-10, residues 100-194)
Technique: RNA Bind-n-Seq
Molecule type: RNA
Sample: in vitro
Concentration: 365 nM
Setting: natural RNA segment, single round, ends assumed
Reference: no-protein control
Direction: higher = stronger binding
All sequences stand within: GGGAGUUCUACAGUCCGACGAUC … UGGAAUUCUCGGGUGCCAA
Target sequence (chain): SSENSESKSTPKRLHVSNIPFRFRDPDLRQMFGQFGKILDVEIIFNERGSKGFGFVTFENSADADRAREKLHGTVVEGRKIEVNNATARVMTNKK
Strand	RBNS enrichment (R)
UUCAUUAAAUGAUUUUUUCUGGUGGUUGUCAAGAAACAAAAGACCAAAAGAGCCUUUUUGUCUUUCUUUUUUAUUUUUUAAGUAUUGGAAUAAGUCUAAAGAAAAGAAAG	0.466
UAAAUGCCUCAGAUGCCCGGGAGGGCCUCUGGUGCCACUGCAUAGUAUAUACUAACAUCAUUCUGCCAAGGUAGGAAGCCCCUGACCCCCAAGCAGUGGUGCCACUCUUC	0.657
GUGAGGUAUUAAAUAUAUCUGAUACCUGAUGGGGCUGUGCCCCAUCCAGCCCUCAAAGUAGUCUCUGUAAAUCGCUGGGAUAGUAUUCAUAUUGUGUCAUCUCAGUGUUA	0.326
CCUCCACCUGUCCUCUGGGGGGGCCCUGAGAGGGAAGGAGAGGUUUCUCACACCAAGGCAGAUGCUCCUCUGGUGGGAGGGUGCUGGCCCUGGCAAGAUUGAAGGAUGUG	0.473
UGCAGUGAUACCAACUUAUAGCAAUGAUGUACUUUAAGGGAACUACCCAACUAUGUUGUGAUAGAAGAAAGAGAAACCUUCACUUUGGCAUUUUUUUUUAAUCACUGUUU	0.513
AAGUUGGGCAUCACUUCGUCUUAGCAGUUAGUGGAUUACUGAUUACUAAAAUAGGUUAAUAGUAAGCAAGGUGCCGGUGUACAGUCUCUAACUCGAUCAGUGUCUUUUCA	0.316
GGACAGAGGGAGAGAGUCCACUACUGAAAGGAACGCUCAAACCUCCUCACACAGGUCCUUGUGCCUGGGCACUCCCCCGCCCCAUAUGCAUACACACAUACAUGCUUUUG	0.298
UAUCUUUCCUUUUGUUUACAACUGUUAAAAAACCUCAAAAUAGUUCUCUUCAAAAGAAGAGAGAUUCCAAGCAACCCAUCUUUCUUCAGUAUGUAUGUUCUGUACAUACU	0.319
AUGCUGACAGUCUUGCAGCAUGGGAACAAAGACAUCAUAUUUUGCUUCAAAUUCUCUUUCAGUAGUACAAUAGCAGGGGGAAAGGGGACAGGUAACAGGAGUACCUUUGU	0.641
UCUUUCCCUCUUCUCCCCAGCCUCCUCCAGGGCUGCCCAAGGCAGGGUUUCCAGCCAGGCCUCGGGGUCAUCUUUUCACCAGGAGCAAACCCAAGUCUUAGUUGCUACAA	0.405
AAGGUCAUCAGAAUGGAGUGAGUGCUCCCUGGGAAGGCAGGCAGGACCUUCAACCAUUGGACCAAGAAGUCAUUGCUUAUGGGUCUCAGGGGCCAUCAAACUGUCUACCU	0.243
CUACCAACUGAGCUACAUCCCCAGCCUUCAGUCCCCACCCCCGAGUCCAGAGACAGGUCUCAUGUGACACUGGACAACCCUGCCAUCACUAGCAUGUGAACCUGGUCCUA	0.769

Set 2
Target: Histone acetyltransferase KAT6A, both winged helices, GST fusion (KAT6A, Homo sapiens, UniProt Q92794, residues 1-181)
Technique: protein binding microarray
Molecule type: double-stranded DNA, one strand shown
Sample: in vitro
Concentration: not given
Setting: 8-mer, flanks averaged, mean of 2 arrays, mostly near background
Reference: not given
Direction: higher = stronger binding
Target sequence (chain): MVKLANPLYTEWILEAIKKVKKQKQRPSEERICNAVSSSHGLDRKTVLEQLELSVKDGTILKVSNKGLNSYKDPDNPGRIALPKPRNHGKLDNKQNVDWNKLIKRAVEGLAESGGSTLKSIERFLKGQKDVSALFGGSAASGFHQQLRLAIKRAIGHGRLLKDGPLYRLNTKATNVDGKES
Strand	E-score
CGCATATC	0.216
GACCGTGC	0.171
TCGGATCA	0.0612
AAAGTGCC	-0.135
AGTTGATA	-0.0784
ATTTCCTA	-0.148
AGATCTAA	-0.0605
ATCGTCGG	0.0661
GCCTCGCA	0.00356
GAATTAAA	-0.0289
GTCACGAC	-0.0677
TGTCCGAA	0.0091
ACACATTG	0.0371
AGTCATGG	-0.127
GACCCCGA	0.0293
ATGGCAAC	0.0632
GCTAGGAC	0.0208
CGCAACAC	0.185
TAAAGGAA	-0.106
GCCTGCCA	-0.106
GAGGGCCA	-0.165
AAGACCCT	-0.144
AAGCCTGG	-0.177
CTTAACAA	0.00123
ACCAGACG	-0.105

Set 3
Target: Ras GTPase-activating protein-binding protein 1, full length (G3BP1, Homo sapiens, UniProt Q13283)
Chain of UniProt Q13283 (whole entry, looked up): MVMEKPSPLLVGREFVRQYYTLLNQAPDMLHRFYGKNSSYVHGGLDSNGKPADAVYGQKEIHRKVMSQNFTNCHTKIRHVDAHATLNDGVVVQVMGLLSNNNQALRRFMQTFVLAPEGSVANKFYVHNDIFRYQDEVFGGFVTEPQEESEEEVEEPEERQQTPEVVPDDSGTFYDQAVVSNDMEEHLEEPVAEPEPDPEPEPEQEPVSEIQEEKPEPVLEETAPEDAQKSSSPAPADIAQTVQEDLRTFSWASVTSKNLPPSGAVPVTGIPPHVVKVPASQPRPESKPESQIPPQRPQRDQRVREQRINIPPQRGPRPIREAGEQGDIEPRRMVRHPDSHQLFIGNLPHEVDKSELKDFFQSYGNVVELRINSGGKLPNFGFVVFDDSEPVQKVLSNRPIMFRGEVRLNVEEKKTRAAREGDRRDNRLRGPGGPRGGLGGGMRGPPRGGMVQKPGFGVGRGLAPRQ
Technique: RNA Bind-n-Seq
Molecule type: RNA
Sample: in vitro
Concentration: 200 nM
Setting: whole 134-nt RNA, ends assumed
Added: 150 mM LiCl
Reference: input library
Direction: higher = stronger binding
Library: 7-deaza-guanosine replaces G
All sequences stand within: GGGAGUUCUACAGUCCGACGAUC … UGGAAUUCUCGGGUGUCAAGG
Strand	log2 enrichment
GUCCUGUGCUACACAUCGUAUGUACCGAAUCGGGAAAAAGGGUUUUUGGGUUUUUGGGAAAGUAUUAUGUUACGCCGUUCGGAUCUGCAC	-2.33
GUCCUGUGCUACACAUCGUAUGUACCGAAUCGGGGAAAAAGGAAAAAGGGGAAAAAGGAAAGUAUUAUGUUACGCCGUUCGGAUCUGCAC	-0.116
GUCCUGUGCUACACAUCGUAUGUACCGAAUCGGGGUUUGGGGUUUUUGGGGUUUGGGGAAAGUAUUAUGUUACGCCGUUCGGAUCUGCAC	0.197
GUCCUGUGCUACACAUCGUAUGUACCGAAUCAAACCCCCAAACCCAAAUUUUUUUAAAAAAGUAUUAUGUUACGCCGUUCGGAUCUGCAC	1.06
GCAGGAAGUAAAAACAAAUGGAAAUGCUUCGGAUAGUGGCAGGGGUGGGGGUUGAUAAGGAAAGGGUGGGAUGGGAGUGGGUAAAGAGUU	0.225
AAGUCCUGUGCUACACAUCGUAUGUACCGAAUCGGGGUUUUGGGUUUUGGUUUUGGGAAAGUAUUAUGUUACGCCGUUCGGAUCUGCACU	-0.735
AGUCCUGUGCUACACAUCGUAUGUACCGAAUCGGGUUUUUGGGUGGGUUUUUUUGGGAAAGUAUUAUGUUACGCCGUUCGGAUCUGCACU	-0.724
AGUCCUGUGCUACACAUCGUAUGUACCGAAUCGGGGUGGGGAAAGGGGUUUUUGGGGAAAGUAUUAUGUUACGCCGUUCGGAUCUGCACU	-0.0828
ACCAUGCAGGUGGGCAUCUUUGGGAAGUGGGGCAAGGGGGGGAUAGGGAGGGGGGCAACACUUUGGGAACAGGUGGUCCCAGGUCGUUUC	0.189
CCUCAAGUCCUGUGCUACACAUCGUAUGUACCGAAUCGGUUUUUGGAGGUGGAAAGUAUUAUGUUACGCCGUUCGGAUCUGCACUUCCAG	0.0567
CAAGUCCUGUGCUACACAUCGUAUGUACCGAAUCGGAAAGGGGAAAGGGAAAGGGGAAAGUAUUAUGUUACGCCGUUCGGAUCUGCACUU	-0.269

Set 4
Target: Interferon regulatory factor 7, full length, phosphomimetic (IRF7, Homo sapiens, UniProt Q92985, residues 1-503, S101K/S471D/S472D/S475D/S476D/S477D/S483D/S484D/S487D)
Technique: protein-binding microarray
Molecule type: double-stranded DNA, one strand shown
Sample: in vitro
Concentration: 250 nM
Setting: 60-bp whole probe
Added: salmon DNA 0.4 mg/ml
Reference: random background probes
Direction: higher = stronger binding
All sequences stand within: GCCTAGCAC … GTCTTGATTCGCTTGACGCTGCTG
Target sequence (chain): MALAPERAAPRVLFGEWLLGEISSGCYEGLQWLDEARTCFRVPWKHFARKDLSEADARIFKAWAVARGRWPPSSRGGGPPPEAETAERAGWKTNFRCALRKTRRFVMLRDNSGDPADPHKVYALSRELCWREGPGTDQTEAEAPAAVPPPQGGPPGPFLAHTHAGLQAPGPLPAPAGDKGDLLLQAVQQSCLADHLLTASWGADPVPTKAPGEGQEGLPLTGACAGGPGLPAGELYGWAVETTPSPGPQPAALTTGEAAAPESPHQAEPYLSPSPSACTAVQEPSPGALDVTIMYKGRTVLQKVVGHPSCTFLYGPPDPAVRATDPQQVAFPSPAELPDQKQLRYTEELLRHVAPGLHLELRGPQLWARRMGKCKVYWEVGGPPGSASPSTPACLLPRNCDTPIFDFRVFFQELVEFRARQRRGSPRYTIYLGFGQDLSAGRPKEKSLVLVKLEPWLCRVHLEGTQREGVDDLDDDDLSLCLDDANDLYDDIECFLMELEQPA
Strand	log fluorescence
GACGATACCAGTCTCGAGACGTGCTAG	0.709 z-score
GACGGTCTCCTTATTCTGACGTGCTAG	-0.00106 z-score
GACGTTATCAGACTGGAGACGTGCTAG	0.0574 z-score
CCACATCTCTGTCCGTGCTCGTGCTAG	0.411 z-score
GACGATCGCAGTTTCGAGACGTGCTAG	3.3 z-score
ATACCTTAGGTTTTCTGGTTGTGCTAG	0.777 z-score
GACGGTTTCCTACTGCTGCCGTGCTAG	1.35 z-score
TCAGATTTCTCAAACAGACTGTGCTAG	0.498 z-score
GACGGACTGGACTACCGGGACGTGCTA	-0.836 z-score
GACGCTTTCAGACTGGAGACGTGCTAG	0.174 z-score
TTAGATTGCGGGACTGGATTAGTGCTA	-0.309 z-score
TTAGGTTTCGGTTTCGGTTGGTGCTAG	15 z-score
TCACTTTTTGCTTTCTTACTGTGCTAG	1.56 z-score
GACGGTTTCCTTTTCCTGACGTGCTAG	6.46 z-score
GACGATTTCCTTATCCTGACGTGCTAG	1.04 z-score
TTAGATTGCGGGTTTCGATTAGTGCTA	5.67 z-score
GACGGTATCGGGTTTCGGGAGGTGCTA	2.39 z-score
GACGATATCGGGACTTGAGACGTGCTA	-0.163 z-score
TTAGGACTGTGGACTGGGTTAGTGCTA	-0.565 z-score
CTGCCTAACATGCTTCGAGATGTGCTA	0.533 z-score

Set 5
Target: Prothrombin, mature alpha-thrombin (F2, Homo sapiens, UniProt P00734)
Technique: aptamer microarray, sandwich
Molecule type: DNA with 2'F-ANA
Sample: in vitro
Concentration: 200 nM
Setting: whole 15-mer aptamer, many near background
Added: Cy3 exosite-II aptamer, 400 nM
Direction: higher = stronger binding
Strand: GGTTGGTGTGGTTGG
Modification	mean fluorescence intensity [a.u.]
2'F-ANA at 1 4 12 13 14	56.9
2'F-ANA at 1 2 5 6 8 12 15	126
2'F-ANA at 3 4 9 10 11 15	558
2'F-ANA at 2 7 8 11 12 13 14 15	196
2'F-ANA at 3 6 7 9 10 11 12 14	384
2'F-ANA at 1 3 4 6 7 11 13	127
2'F-ANA at 2 5 6 9 10 11 12 13 14 15	52.7
2'F-ANA at 1 3 9 11 12 13 14 15	99.7
2'F-ANA at 4 7 11	333
2'F-ANA at 4 9 13 14	195
2'F-ANA at 1 2 3 4 5 6 8 10 11 13 15	52.8
2'F-ANA at 1 2 3 6 8 10 11 14	53.9
2'F-ANA at 1 13 14	54.2
2'F-ANA at 2 4 5 6 12 13	117
2'F-ANA at 2 3 4 5 7 13 14	54.5
2'F-ANA at 4 6 9 10 12 13	79.8
2'F-ANA at 1 2 3 4 7 8 9 11 13 14	103
2'F-ANA at 1 4 5 13 14 15	44.3
2'F-ANA at 5 6 7 9 10 11 12 13 15	48.5
2'F-ANA at 2 5 6 7 8 10 11	48.1
2'F-ANA at 1 4 6 9 12 14 15	55.3
2'F-ANA at 3 4 5 6 7 11 14	52.8
2'F-ANA at 1 2 3 4 5 6 8 11 12 13 14 15	56.5
2'F-ANA at 6 7 8 10 11 13	155
2'F-ANA at 1 5 7 9 10 11	57.5

Repeated from above (set 2):
Strand	E-score
AAAGTGCC	-0.135
AGTTGATA	-0.0784
ATTTCCTA	-0.148
AGATCTAA	-0.0605
ATCGTCGG	0.0661
GCCTCGCA	0.00356
GAATTAAA	-0.0289
GTCACGAC	-0.0677
TGTCCGAA	0.0091
ACACATTG	0.0371
AGTCATGG	-0.127
GACCCCGA	0.0293
ATGGCAAC	0.0632
GCTAGGAC	0.0208
CGCAACAC	0.185
